Measurements collected from several papers.
Each numbered part is a random draw from the data of one study; scales do not carry over between parts. Several values in a cell are separate wells, animals, samples, runs or records.
UniProt P11229, sequence (whole entry, looked up): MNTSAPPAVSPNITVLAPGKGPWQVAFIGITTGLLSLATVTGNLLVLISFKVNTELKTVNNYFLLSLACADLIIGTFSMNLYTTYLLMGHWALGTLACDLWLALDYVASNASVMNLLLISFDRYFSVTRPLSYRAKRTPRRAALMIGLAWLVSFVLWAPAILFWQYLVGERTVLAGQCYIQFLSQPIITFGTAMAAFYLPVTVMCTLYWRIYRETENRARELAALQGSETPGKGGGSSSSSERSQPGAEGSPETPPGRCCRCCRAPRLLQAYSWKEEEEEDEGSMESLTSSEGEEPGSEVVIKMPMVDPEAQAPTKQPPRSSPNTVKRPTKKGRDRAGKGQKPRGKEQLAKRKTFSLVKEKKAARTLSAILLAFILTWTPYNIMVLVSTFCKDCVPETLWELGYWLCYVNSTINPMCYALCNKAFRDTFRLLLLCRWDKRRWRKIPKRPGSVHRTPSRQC
UniProt Q01959, sequence (whole entry, looked up): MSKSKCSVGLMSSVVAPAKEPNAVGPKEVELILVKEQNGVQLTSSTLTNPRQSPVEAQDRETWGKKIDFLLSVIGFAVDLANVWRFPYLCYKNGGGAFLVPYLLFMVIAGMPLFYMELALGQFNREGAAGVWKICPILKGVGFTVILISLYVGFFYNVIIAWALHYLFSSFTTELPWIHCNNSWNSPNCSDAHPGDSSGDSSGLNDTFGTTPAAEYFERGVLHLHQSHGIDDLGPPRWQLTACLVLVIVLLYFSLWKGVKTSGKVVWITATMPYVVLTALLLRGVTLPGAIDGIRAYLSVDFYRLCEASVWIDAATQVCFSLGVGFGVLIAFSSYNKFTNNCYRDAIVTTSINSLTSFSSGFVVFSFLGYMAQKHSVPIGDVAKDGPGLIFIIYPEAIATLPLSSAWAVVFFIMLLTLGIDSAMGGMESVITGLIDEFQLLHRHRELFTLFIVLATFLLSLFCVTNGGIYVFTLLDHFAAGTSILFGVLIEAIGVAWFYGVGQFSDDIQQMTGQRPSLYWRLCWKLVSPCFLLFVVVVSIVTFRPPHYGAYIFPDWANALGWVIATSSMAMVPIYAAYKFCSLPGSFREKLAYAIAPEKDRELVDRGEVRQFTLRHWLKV
UniProt P41145, sequence (whole entry, looked up): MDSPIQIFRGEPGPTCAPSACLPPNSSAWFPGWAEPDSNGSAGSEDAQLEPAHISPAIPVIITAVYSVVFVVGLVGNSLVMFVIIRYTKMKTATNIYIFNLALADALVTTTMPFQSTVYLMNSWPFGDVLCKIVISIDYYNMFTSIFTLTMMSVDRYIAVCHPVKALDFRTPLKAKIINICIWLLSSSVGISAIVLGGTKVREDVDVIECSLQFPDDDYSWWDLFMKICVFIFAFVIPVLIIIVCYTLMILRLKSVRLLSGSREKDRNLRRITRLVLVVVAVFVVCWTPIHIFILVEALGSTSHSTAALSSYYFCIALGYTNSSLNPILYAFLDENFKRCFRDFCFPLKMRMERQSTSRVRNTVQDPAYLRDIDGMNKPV

Block 1 — read-out: ligand displacement; tested at: 10 µM
Structure (SMILES): O=C(O)[C@H]1[C@H](Cn2nnc3ccccc3c2=O)CC[C@@H]1C(=O)c1ccc(OCCC2CCOCC2)cc1
target | inhibition [%]
Sodium-dependent dopamine transporter (SLC6A3, Homo sapiens, UniProt Q01959) | -10.4
Muscarinic acetylcholine receptor M1 (CHRM1, Homo sapiens, UniProt P11229) | 18
Muscarinic acetylcholine receptor M3 (CHRM3, Homo sapiens, UniProt P20309) | -7.32
Kappa-type opioid receptor (OPRK1, Homo sapiens, UniProt P41145) | -3.04

Block 2 — read-out: RNA clamping; method: fluorescence polarization; tested at: concentration not given; notes: mean of two replicates; together with: FAM-labelled poly r(AG)8 RNA
Target: Eukaryotic initiation factor 4A-I (EIF4A1, Homo sapiens, UniProt P60842)
UniProt P60842, sequence (whole entry, looked up): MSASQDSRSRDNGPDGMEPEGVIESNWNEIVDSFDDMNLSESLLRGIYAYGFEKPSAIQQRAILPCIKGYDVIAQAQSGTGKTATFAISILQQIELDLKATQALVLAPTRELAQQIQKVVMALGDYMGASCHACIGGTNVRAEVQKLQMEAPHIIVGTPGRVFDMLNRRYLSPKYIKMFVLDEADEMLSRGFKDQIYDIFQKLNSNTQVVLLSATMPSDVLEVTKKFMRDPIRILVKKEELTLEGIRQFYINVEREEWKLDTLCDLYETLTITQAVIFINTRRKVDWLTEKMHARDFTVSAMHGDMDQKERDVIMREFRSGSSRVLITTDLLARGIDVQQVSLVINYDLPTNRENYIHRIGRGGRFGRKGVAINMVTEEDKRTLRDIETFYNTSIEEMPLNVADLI
SMILES | fluorescence polarization change
COc1ccc([C@@]23Oc4cc(OC)cc(OC)c4[C@]2(O)c2nc(-c4cccnc4)[nH]c(=O)c2[C@H]3c2ccccc2)cc1 | 45.8 mP
COCc1nc2c(c(=O)[nH]1)[C@@H](c1ccccc1)[C@]1(c3ccc(OC)cc3)Oc3cc(OC)cc(OC)c3[C@]21O | 62.6 mP
COC(=O)[C@@H]1[C@@H](O)[C@@]2(O)c3c(OC)cc(OC)cc3O[C@@]2(c2ccc(Br)cc2)[C@H]1c1ccccc1 | 24.5 mP
COC(=O)[C@@H]1[C@@H](c2ccccc2)[C@]2(c3ccc(OC)cc3)Oc3cc(OC)cc(OC)c3[C@@]23N=C(C)N[C@@]13O | 91.5 mP and 77.5 mP
COc1ccc([C@@]23Oc4cc(OC)cc(OC)c4[C@@]24NC(C)=N[C@@]4(O)[C@H](C(=O)N(C)OC)[C@H]3c2ccccc2)cc1 | 117 mP
COC(=O)[C@@H]1[C@@H](c2ccccc2)[C@]2(c3ccc(OC)cc3)Oc3cc(OC)cc(OC)c3[C@@]23OC(C)=N[C@@]13O | 39.6 mP
COC(=O)[C@@H]1[C@@H](c2ccccc2)[C@]2(c3ccc(OC)cc3)Oc3cc(OC)cc(OC)c3[C@@]23OC(c2ccc(Cl)nc2)=N[C@@]13O | 13.3 mP
COc1ccc([C@@]23Oc4cc(OC)cc(OC)c4[C@]2(O)c2nc(-c4cnccn4)[nH]c(=O)c2[C@H]3c2ccccc2)cc1 | 37.7 mP
COc1ccc([C@@]23Oc4cc(OC)cc(OC)c4[C@]2(O)[C@@H](O)C[C@H]3c2ccccc2)cc1 | 21.5 mP
COc1ccc([C@@]23Oc4cc(OC)cc(OC)c4[C@]2(O)[C@H](O)[C@H](C(=O)O)[C@H]3c2ccccc2)cc1 | 51.1 mP and 59.3 mP

Block 3 — read-out: enzyme activity; action: inhibitor; tested at: 10 µM
Target: Calcium/calmodulin-dependent protein kinase type II subunit alpha (CAMK2A, Homo sapiens, UniProt Q9UQM7)
UniProt Q9UQM7, sequence (whole entry, looked up): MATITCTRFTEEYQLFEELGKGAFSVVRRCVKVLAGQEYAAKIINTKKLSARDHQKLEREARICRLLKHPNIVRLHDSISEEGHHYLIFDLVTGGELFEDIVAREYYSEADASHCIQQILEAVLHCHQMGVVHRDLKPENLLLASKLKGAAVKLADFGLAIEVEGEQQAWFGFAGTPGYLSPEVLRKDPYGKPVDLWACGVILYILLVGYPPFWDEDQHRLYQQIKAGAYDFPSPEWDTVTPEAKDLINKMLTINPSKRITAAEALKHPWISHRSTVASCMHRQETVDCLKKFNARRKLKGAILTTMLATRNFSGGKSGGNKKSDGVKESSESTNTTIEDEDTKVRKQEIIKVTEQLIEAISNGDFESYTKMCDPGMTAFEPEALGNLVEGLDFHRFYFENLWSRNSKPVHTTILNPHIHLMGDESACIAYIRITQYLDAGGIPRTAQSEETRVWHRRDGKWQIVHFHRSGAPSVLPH
SMILES | inhibition
C/C=C1/CN2CCc3c([nH]c4ccccc34)[C@@H]2C[C@@H]1/C(=C/OC)C(=O)OC | -11%
CC(=O)C1=C(O)[C@@H]2[C@H]3c4c[nH]c5cccc(c45)C[C@H]3C(C)(C)N2C1=O | 2%
C=CCc1cc(OC)c2c(c1)OCO2 | -12%
COc1cc2c(cc1O)C[C@H]1c3c(cc(O)c(OC)c3-2)CCN1C | -29%
C[C@]12CCC(=O)C=C1CC[C@@H]1[C@@H]2C(=O)C[C@]2(C)C(=O)CC[C@@H]12 | -10%
Cc1cc(C2=NOC(c3cc(Cl)cc(Cl)c3)(C(F)(F)F)C2)ccc1C(=O)NCC(=O)NCC(F)(F)F (stereo not drawn) | -6%
CC[C@]12C=CCN3CC[C@@]4(c5ccc(OC)cc5N(C)[C@H]4[C@@](O)(C(=O)OC)[C@@H]1OC(C)=O)[C@@H]32 | 10%

Other studies, line by line
POLQ ATPase domain: DNA polymerase theta, ATPase domain (POLQ, Homo sapiens, UniProt O75417)
UniProt O75417, sequence (whole entry, unmodified, looked up): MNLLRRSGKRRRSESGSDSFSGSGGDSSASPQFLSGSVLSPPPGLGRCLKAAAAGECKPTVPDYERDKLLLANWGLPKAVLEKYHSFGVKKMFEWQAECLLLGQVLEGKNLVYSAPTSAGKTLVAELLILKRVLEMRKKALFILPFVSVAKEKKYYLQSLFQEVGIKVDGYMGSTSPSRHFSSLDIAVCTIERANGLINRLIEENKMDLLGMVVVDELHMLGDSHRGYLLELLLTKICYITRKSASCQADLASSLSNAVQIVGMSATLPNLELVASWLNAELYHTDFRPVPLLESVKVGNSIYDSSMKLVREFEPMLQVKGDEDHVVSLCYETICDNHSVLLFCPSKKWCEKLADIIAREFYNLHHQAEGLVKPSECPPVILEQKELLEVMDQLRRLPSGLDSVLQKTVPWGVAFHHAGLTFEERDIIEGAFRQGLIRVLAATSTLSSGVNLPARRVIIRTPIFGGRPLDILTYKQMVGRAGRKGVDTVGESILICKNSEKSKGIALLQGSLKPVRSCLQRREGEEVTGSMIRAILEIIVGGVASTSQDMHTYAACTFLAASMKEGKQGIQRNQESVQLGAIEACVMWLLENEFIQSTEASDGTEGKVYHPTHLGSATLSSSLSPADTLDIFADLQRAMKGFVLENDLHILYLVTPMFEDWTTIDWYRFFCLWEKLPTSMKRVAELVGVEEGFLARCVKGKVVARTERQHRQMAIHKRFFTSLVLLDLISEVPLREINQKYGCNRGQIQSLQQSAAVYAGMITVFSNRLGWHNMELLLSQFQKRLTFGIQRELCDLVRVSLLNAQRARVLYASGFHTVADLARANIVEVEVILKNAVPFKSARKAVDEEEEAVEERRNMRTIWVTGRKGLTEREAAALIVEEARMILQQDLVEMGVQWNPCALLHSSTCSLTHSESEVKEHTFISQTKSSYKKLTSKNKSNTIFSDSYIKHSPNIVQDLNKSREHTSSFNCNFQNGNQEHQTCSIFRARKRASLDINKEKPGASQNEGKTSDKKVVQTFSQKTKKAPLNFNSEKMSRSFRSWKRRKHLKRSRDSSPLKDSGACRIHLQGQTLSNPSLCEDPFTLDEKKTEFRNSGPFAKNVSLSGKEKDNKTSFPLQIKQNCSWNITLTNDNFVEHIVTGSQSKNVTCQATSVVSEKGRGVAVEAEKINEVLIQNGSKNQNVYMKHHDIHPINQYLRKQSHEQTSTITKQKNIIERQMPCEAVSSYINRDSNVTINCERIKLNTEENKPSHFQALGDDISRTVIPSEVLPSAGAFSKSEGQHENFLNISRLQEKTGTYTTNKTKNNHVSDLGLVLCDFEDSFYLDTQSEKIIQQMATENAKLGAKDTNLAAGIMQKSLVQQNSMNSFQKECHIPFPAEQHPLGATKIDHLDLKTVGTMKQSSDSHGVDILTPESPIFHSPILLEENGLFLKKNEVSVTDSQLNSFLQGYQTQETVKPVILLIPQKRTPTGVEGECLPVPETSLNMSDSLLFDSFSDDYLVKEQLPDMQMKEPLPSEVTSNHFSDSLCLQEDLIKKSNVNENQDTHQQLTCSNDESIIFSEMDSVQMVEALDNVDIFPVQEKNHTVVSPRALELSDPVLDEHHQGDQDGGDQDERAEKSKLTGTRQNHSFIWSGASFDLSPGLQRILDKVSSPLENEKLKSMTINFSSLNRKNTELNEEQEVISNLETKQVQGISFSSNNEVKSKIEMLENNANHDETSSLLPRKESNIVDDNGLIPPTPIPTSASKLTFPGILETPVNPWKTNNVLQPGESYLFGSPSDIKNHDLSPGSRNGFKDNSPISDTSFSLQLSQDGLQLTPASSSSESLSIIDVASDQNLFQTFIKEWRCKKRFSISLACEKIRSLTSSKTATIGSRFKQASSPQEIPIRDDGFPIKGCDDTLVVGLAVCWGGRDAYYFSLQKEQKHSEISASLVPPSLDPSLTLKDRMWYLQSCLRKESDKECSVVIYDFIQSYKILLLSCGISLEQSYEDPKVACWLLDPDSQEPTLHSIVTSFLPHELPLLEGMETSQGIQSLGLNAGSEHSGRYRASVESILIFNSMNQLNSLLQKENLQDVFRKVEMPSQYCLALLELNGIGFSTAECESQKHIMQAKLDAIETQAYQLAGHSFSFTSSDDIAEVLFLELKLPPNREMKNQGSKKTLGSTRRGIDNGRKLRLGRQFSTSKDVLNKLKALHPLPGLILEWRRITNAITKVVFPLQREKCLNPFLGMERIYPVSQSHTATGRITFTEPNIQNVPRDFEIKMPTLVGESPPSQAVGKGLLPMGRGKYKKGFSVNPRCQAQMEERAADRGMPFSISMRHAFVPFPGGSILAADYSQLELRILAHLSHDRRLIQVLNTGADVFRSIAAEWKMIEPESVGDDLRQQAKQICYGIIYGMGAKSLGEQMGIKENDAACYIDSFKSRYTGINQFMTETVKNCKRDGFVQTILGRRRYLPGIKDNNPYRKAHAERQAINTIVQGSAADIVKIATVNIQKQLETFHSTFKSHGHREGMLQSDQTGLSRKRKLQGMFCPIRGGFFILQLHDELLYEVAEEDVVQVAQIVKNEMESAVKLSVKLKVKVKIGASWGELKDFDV
Compound | tested on | test | test system | conditions | how to read | quantity | result
C[C@]12CCC(=O)C=C1C=C[C@@H]1[C@@H]2CC[C@@]2(C)[C@H]1CC[C@@]2(O)CCC(=O)O | POLQ ATPase domain | enzyme activity, inhibitor | – | 77 µM | baseline: untreated | remaining activity | 101%
CNC(=O)c1ccc(-c2cnn3ccc(C(=O)N(C)c4ccc(Cl)c(C(=O)OC)c4)cc23)cc1 | Cryptosporidium parvum | – | neonatal calves | dose not given, day 5 post-treatment | direction not given | fecal consistency score | 2 and 1 and 3
C#C[C@]1(O)C=C[C@H]2[C@@H]3CCC4=CC(=O)CC[C@@H]4[C@H]3CC[C@@]21CC | POLQ ATPase domain | enzyme activity, inhibitor | – | 77 µM | baseline: untreated | remaining activity | 99%

For quick reference, copied from above (block 2):
SMILES | fluorescence polarization change
COC(=O)[C@@H]1[C@@H](c2ccccc2)[C@]2(c3ccc(OC)cc3)Oc3cc(OC)cc(OC)c3[C@@]23OC(C)=N[C@@]13O | 39.6 mP
